Measured values collected from several papers.
Protocols differ between the studies behind these lines.
Target: Serine/threonine-protein kinase ULK2 (ULK2, Homo sapiens, UniProt Q8IYT8)

C=CC(=O)N1CCc2ccc(-n3c(=O)ccc4cnc5ccc(-c6cnn(C)c6)cc5c43)cc21
remaining binding (KINOMEscan; 1 µM; reference: DMSO control): 100%

COc1c(OCCCN2CCOCC2)ccc2c1N=C(NC(=O)c1cnc(N)nc1)N1CCN=C21
remaining activity (kinase activity, inhibitor; 1 µM; reference: untreated control): 111%

O=C=[N][Ru-4]123([n]4c5ccc(O)cc5c5c6c(c7cc(F)c[n+]1c7c54)C(=O)NC6=O)[S+]1CC[S+]2CC[S+]3CC1 (stereo not drawn)
remaining activity (enzyme activity; 100 nM, human enzyme, added: 10 µM ATP; reference: untreated): 106%

O=C(Cc1ccc(OCc2ccccc2)cc1)NC1(C(=O)O)CCN(C(=O)c2ccc(-c3cccc(Cl)c3)cc2)CC1
activity vs control (enzyme activity, inhibitor; 10 µM): 102%

COc1ccc(O)cc1-c1c[nH]c2ncc(-c3cncc(C(=O)N(C)C)c3)cc12
inhibition (binding, competition with immobilised ligand; 0.2 µM): 8.85%

C=CC(=O)N1Cc2nc(-c3cc(-c4cc(Cl)cnc4Cl)c(F)cc3F)n(-c3ccncn3)c2C1
inhibition (cell-free assay, inhibitor; 1 µM): 0.7%

C=CC(=O)N1CCCC(n2c(=O)c3ncccc3n(Cc3ccc(Oc4ccccc4)cc3)c2=O)C1 (stereo not drawn)
remaining binding (cell-free assay, competition with immobilised ligand; 1 µM): 68%

CC(=O)N1c2ccc(-c3ccc(CNC(=O)c4cn5cc(-c6cnc(N)nc6)nc(N6CCOCC6)c5n4)cc3)cc2CC[C@@H]1C
remaining binding (KINOMEscan; 10 µM): 94%

CNC(=O)C[C@H](Cc1ccc(C#N)cc1)NC(=O)c1cc(-c2ccc(CN[C@H](C)c3ccc(C)cc3)o2)ccc1Cl
activity vs control (enzyme activity, inhibitor; 1 µM): 105%

CNS(=O)(=O)Nc1nccc(Cc2c(C)c3ccc(Oc4ncccc4F)cc3oc2=O)c1F
remaining binding (binding, competition with immobilised ligand; 10 µM): 92%

Cc1ccc(-c2c(/C=C(\C#N)C(=O)NC(C)C)n(CCCO)c3ncnc(N)c23)cc1
remaining binding (cell-free assay, competition with immobilised ligand; 1 µM): 98%

CN1CC[C@@H](COc2cnc(C#N)cc2-c2ccn3nc(NC(=O)C4CC4)cc3c2)C1
inhibition (enzyme activity, inhibitor; 1 µM): 8%

NC(=O)C[C@H]1CCc2sc3ncnc(O[C@H]4CC[C@H](N5CCOCC5)CC4)c3c21
inhibition (enzyme activity, inhibitor; 10 µM): 1%

COc1ccc(NC(=O)Nc2ccc3c(c2)C(=O)N(C(C)CO)CC(C)C(CN(C)Cc2ccc4c(c2)OCO4)O3)cc1 (stereo not drawn)
remaining activity (kinase activity, KinaseProfiler; 0.03 µM, species human; reference: control): 96%

CN1CCN(Cc2ccc(-c3ccc(CO[C@H]4CCC[C@@H]4NC(=O)c4cc(-c5cnn(C)c5)cnc4N)cc3)cc2)CC1
inhibition (enzyme activity, inhibitor; 0.1 µM): 1%

COc1cc(Nc2nc(C)cc(-c3cnn4nc(OC)ccc34)n2)cc(C(F)(F)F)c1
remaining binding (binding, competition with immobilised ligand; 1 µM): 92%

Cc1ccc(C(=O)Nc2ccc(CN3CCN(C)CC3)c(C(F)(F)F)c2)cc1C#Cc1cnc2cccnn12
upper asymptote (target engagement, NanoBRET; human cells): 650

CN1CCN(Cc2ccc(NC(=O)c3cccc(C#Cc4cnc(N)c5ncccc45)c3)cc2C(F)(F)F)CC1
remaining binding (cell-free assay, competition with immobilised ligand; 0.5 µM): 95%

Excerpt of the above:
CNS(=O)(=O)Nc1nccc(Cc2c(C)c3ccc(Oc4ncccc4F)cc3oc2=O)c1F
remaining binding (binding, competition with immobilised ligand; 10 µM): 92%
